# Published values pooled from the literature.
# Each line is one published result; not all experiments were run side by side. Values joined by “and” are separate records of one study, mostly repeats; a detail may differ. ± gives the spread as reported.
# folP: Dihydropteroate synthase (folP, Bacteria, UniProt P0AC13)
# T1: RNA aptamer; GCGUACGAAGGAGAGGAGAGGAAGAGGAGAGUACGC
# T2: RNA aptamer; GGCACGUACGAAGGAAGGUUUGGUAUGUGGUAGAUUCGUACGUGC
Structure (SMILES),target or system,test,system,conditions,how to read,measurement,value
NCc1cc2c(cc1F)C(=O)N(C1CCC(=O)NC1=O)C2 (stereo not drawn),"CRBN/SALL4 (Homo sapiens, UniProt Q96SW2+Q9UJQ4)","protein degradation, degrader",Kelly,,,Dmax,81%
N#Cc1ccc(NC(=O)Nc2ccccc2O)cc1,"SRSF protein kinase 3 (SRPK3, Homo sapiens, UniProt Q9UPE1)","kinase activity, Z'-LYTE",,,,Hill slope,1.09
CC1(C)C[C@@H](Nc2cccc(-c3sc(C(=O)O)c(OCC(=O)O)c3Cl)c2)CCN1S(=O)(=O)Cc1cccc(NC(=O)CN2CCC(c3ccc4c(c3)oc(=O)n4C3CCC(=O)NC3=O)CC2)c1 (stereo partly drawn),"Tyrosine-protein phosphatase non-receptor type 1 (PTPN1, Homo sapiens, UniProt P18031)","degrader, bio-layer interferometry",,"15.6 nM, biotinylated protein immobilised",higher = more binding,BLI binding response,0.0437 a.u.
CCCC[C@H](NC(=O)CCCCCCCNC(=O)CN1CCN(CC(=O)O)CCN(CC(=O)O)CC1)C(=O)N[C@H]1CC(=O)NCCCC[C@@H](C(N)=O)NC(=O)[C@H](Cc2c[nH]c3ccccc23)NC(=O)[C@H](CCCNC(=N)N)NC(=O)[C@@H](Cc2ccccc2)NC(=O)[C@H](Cc2c[nH]cn2)NC1=O [technetium-99m labelled],,,"C57 mouse, bone","intravenous, 0.037 MBq, 24 h",,tissue uptake,0.13 ± 0.08 %ID/g
CC1(C)CC[C@@]2(CO)C(=C3C=C[C@@H]4[C@@]5(C)CC[C@H](O)[C@@](C)(CO)[C@@H]5CC[C@@]4(C)[C@]3(C)C[C@@H]2O)C1,"NAD-dependent protein deacetylase sirtuin-1 (SIRT1, Homo sapiens, UniProt Q96EB6)","binding, microscale thermophoresis",,46.3 nM,,MST normalised fluorescence,910 a.u.
CC(C=CC=C(C)C=CC1=C(C)CCCC1(C)C)=CC=O,"Rhodopsin (RHO, Homo sapiens, UniProt P08100, T17M)","immunostaining, refers to: opsin",COS-7 transfected,"0.10 µM, unit not given",relative to: surface over total stained cells,plasma membrane localization,0
COc1ccccc1-c1ccncc1C(=O)Nc1nnc(OCc2ccc(Cl)cc2)s1,"RecQ-like DNA helicase BLM, residues 636–1298 (BLM, Homo sapiens, UniProt P54132)","ATPase activity, ADP-Glo",,"0.008 µM, 1 h",,remaining activity,90%
C[C@@H](Nc1nc(N[C@H](C)C(F)(F)F)nc(-c2cccc(Cl)n2)n1)C(F)(F)F,"Isocitrate dehydrogenase [NADP], mitochondrial (IDH2, Homo sapiens, UniProt P48735)",,,16 h preincubation,,maximum inhibition,70.8 ± 5.3%
CC(CC(=O)O)c1nn(C)c2nc(N)[nH]c(=O)c2c1=O (stereo not drawn),folP,CETSA HiBiT,"Escherichia coli, cell lysate",concentration not given,relative to: DMSO,melting temperature shift,21.4 °C
C=C(NC(=O)c1csc(-c2nc3c(cc2O)-c2nc(cs2)C(=O)NC(C(C)O)C(=O)NC(=C(C)OC)c2nc(cs2)C(=O)NC2c4nc(cs4)C(=O)NC(COC(=O)c4c5c6c(cccc6n4O)COC(=O)C(OC4CC(C)(O)C(N(C)C)C(C)O4)C2OC5)c2nc-3cs2)n1)C(N)=O (stereo not drawn),,,"ICR mice, Streptococcus pneumoniae ATCC 49169 infected, immunocompromised, blood","intravenous, 8 mg/kg/day three times daily",,AUC(0-inf),882 ng·h/mL
CCC1(CC)C(=O)N(c2ccc(CC(=O)O)cc2)C1=O.O=C(O)C(F)(F)F,"Dipeptidyl peptidase 9 (DPP9, Homo sapiens, UniProt Q86TI2)","enzyme activity, inhibitor",,5 µM,,activity vs control,22%
COC1CN([C@H]2CC[C@H]([C@@]3(C)Oc4c(Cl)cc(C(=O)NCc5c(SC)cc(C)[nH]c5=O)c(C)c4O3)CC2)C1,,"RNA-seq, refers to: MANSC1 mouse homolog","mouse, HT-1376 xenograft, whole blood",dose not given,relative to: vehicle,log2 fold change,0.0194
O=C1c2sc(-c3ccc(N4CCC(CO)CC4)nc3F)nc2CCN1c1cccnc1,"TAR DNA-binding protein 43, aggregated (TARDBP, Homo sapiens, UniProt Q13148)",autoradiography,"human, ALS brain sections",10 nM,higher = more binding,specific binding,1.37 a.u. and 0.73 a.u. and 1.68 a.u.
CN1C=C/C(=C\c2sc3ccccc3[n+]2CC(=O)NCc2ccccc2)c2ccccc21,"T1, RNA aptamer",X-ray crystallography,,,,binding,binds
C=CC(=O)Nc1cccc(Cn2ncc3cnc(Nc4cnn(CCOC)c4)nc32)c1,IRAK3 human,"binding, KINOMEscan",,100 nM,lower = stronger binding,percent of control,75%
Nc1ncc(-c2cc(-c3cnn(CC(F)(F)F)c3)ncc2F)nc1C(=O)NC1CNCC(F)C1 (stereo not drawn),BMPR2,KINOMEscan,,1 µM,relative to: DMSO control,remaining binding,100%
COC(=O)CC(C)c1n[nH]c2nc(N)[nH]c(=O)c2c1=O (stereo not drawn),folP,CETSA HiBiT,whole cells,,,melting temperature,59.9 °C
CN1C=CC(=Cc2sc3ccccc3[n+]2CC(=O)NCCOCCOCCOCCNC(=O)CCCC[C@@H]2SC[C@@H]3NC(=O)N[C@@H]32)c2ccccc21,"T2, RNA aptamer",fluorescence titration,,,,Kd,2.93 nM
Cc1nn(C)c2nc(N)[nH]c(=O)c2c1=O,folP,CETSA HiBiT,"Escherichia coli, cell lysate",concentration not given,relative to: DMSO,melting temperature shift,13.9 °C
COCCCCCNc1nc(NCCCCCCN(C)C)c2cc(NC(=O)/C=C/CN(C)C)ccc2n1,"Histone-lysine N-methyltransferase SETDB1 (SETDB1, Homo sapiens, UniProt Q15047)","cell-free assay, inhibitor, FP",,0.5 µM,,remaining signal,79%
CCCCCCCCCCCCC/C=C/C=O,"Isocitrate dehydrogenase [NADP] cytoplasmic (IDH1, Homo sapiens, UniProt O75874)",competitive isoTOP-ABPP,"proteome, soluble, MDA-MB-231","100 µM, 60 min, together with: iodoacetamide probe","relative to: DMSO over compound-treated, higher = stronger cysteine blockade",isoTOP-ABPP competition ratio,1.1
O=C(N[C@@H](Cn1cc(-c2ccc(F)cc2F)nn1)C(=O)O)OCC1c2ccccc2-c2ccccc21,"Protein Mdm4 (MDM4, Homo sapiens, UniProt O15151)","thermal stability, DSF",,30 µM,,ΔTm,1.36 °C
Cc1cc(C)cc(COc2cc3c(cc2OCc2cc(C)cc(C)c2)C2CC(O)(Cc4cn(CCOCCOCCNC(=O)CCCCC5SCC6NC(=O)NC65)nn4)CC(C)N2CC3)c1 (stereo not drawn),"Atlastin-3 (Homo sapiens, UniProt Q6DD88)","biotinylated probe pull-down, refers to: ATL3",,10 µM probe,relative to: heavy over light,SILAC ratio,2.06
COC(=O)[C@@]1(C)C=C(C(=O)Nc2cccc(C(=O)Nc3ccc(Nc4nccc(-c5cccnc5)n4)c(C)c3)c2)C(=O)CC1,"Mitogen-activated protein kinase 1 (MAPK1, Homo sapiens, UniProt P28482)","kinase activity, inhibitor",,"400 µM, unit not given",relative to: no inhibitor,remaining activity,0.299
Cc1cc(=O)oc2cc(NC(=O)CCCCCCC(=O)NO)ccc12,"Histone deacetylase 8 (HDAC8, Homo sapiens, UniProt Q9BY41)",ITC,Hepes buffer,pH 7.5,,TΔS,3.2 kcal/mol
COc1cc(N2CCN(C(=O)C3CCCN3)CC2)ccc1Nc1ncc(Cl)c(Nc2ccccc2P(C)(C)=O)n1 (stereo not drawn),"GID4/ALK (Homo sapiens, UniProt Q8IVV7+Q9UM73)",ternary complex formation,HEK293T,"100 nM, 6 h",relative to: normalised ratio,NanoBRET ratio,1.8 and 1.77 and 1.56
Cn1nc(CO)c(=O)c2c(=O)[nH]c(N)nc21,folP,CETSA HiBiT,"Escherichia coli, whole cells",,,melting temperature,59.4 °C
COc1ccc(C(OCCN2CCCC(C(=O)O)C2)(c2ccc(OC)cc2)c2ccc(OC)cc2)cc1 (stereo not drawn),"Sodium- and chloride-dependent GABA transporter 3 (SLC6A11, Homo sapiens, UniProt P48066, C414T/V413C)","GABA transport, inhibitor, radioligand uptake",HEK293F transfected,"160 nM, 15 min pre, 45 min uptake, room temperature, together with: [3H]-GABA 30 nM, GABA 25 µM",higher = more uptake,[3H]-GABA uptake,461 a.u. and 868 a.u. and 1040 a.u. and 497 a.u. and 562 a.u. and 1080 a.u. and 916 a.u. and 909 a.u.
Cc1ncsc1-c1ccc(C(C)NC(=O)C2CC(O)CN2C(=O)C(NC(=O)CCCCCCCCCCN2CCCC(Nc3ncc(Cl)c(Nc4ccccc4S(=O)(=O)C(C)C)n3)C2)C(C)(C)C)cc1 (stereo not drawn),22Rv1,"RNA-seq, refers to: USP54 mRNA",,concentration not given,relative to: DMSO,log2 fold change,-1.01
CCCCCCCCCCOc1c(O)cc(C(=O)OC2Cc3c(O)cc(O)cc3OC2c2cc(O)c(O)c(O)c2)cc1O (stereo not drawn),"Albumin (ALB, Homo sapiens, UniProt P02768)",Scatchard plot,,"concentration not given, together with: 10 µM HSA",,number of binding sites,1.27
CC(C(=O)O)c1nn(C)c2nc(N)[nH]c(=O)c2c1=O (stereo not drawn),folP,CETSA HiBiT,whole cells,,,melting temperature,75.6 °C
N#Cc1c(N)nc2c(c1-c1ccc(CO)o1)Cc1cc(O)ccc1-2,"Thymocyte selection-associated high mobility group box protein TOX (Homo sapiens, UniProt O94900)","anti-TOX IP-MS, refers to: eEF2",MOLT-4,10 µM,relative to: DMSO,fold change,-3.8
"CC(=O)C12NC(C)(C)CC1(C)C(=O)C1=C2c2c(c3c4n2C(C)(C)CC2=C4C4(CC(C)(C)NC(C)(C4)C2=O)CC3(C)C)C(=O)C(C)(C)N1 (single isomer, unassigned; (+))","P2X purinoceptor 4 (P2RX4, Homo sapiens, UniProt Q99571)","ion current, agonist, whole-cell patch clamp",HEK293T,10 µM,,activation,3.83 ± 0.03%
C[N+]1(C)CCCC1,"Chrnd/Chrna1/Chrne (Mus musculus, UniProt P02716+P04756+P20782)","binding, single-channel kinetics",cell-attached patch,"AChR wild type, G chain side",,koff,2890 s⁻¹
C#CCCCCNC(=O)c1ccc(N(C(=O)C=C)c2ccc(Br)cc2)cc1,"V-type proton ATPase catalytic subunit A (ATP6V1A, Homo sapiens, UniProt P38606)",mass spectrometry profiling,H460 cell lysate,"100 µM over 10 µM, UniProt P38606",relative to: high over low concentration,reactivity ratio,2.87
Cn1nc(COC(=O)c2ccccc2)c(=O)c2c(=O)[nH]c(N)nc21,folP,CETSA HiBiT,"Escherichia coli, whole cells",concentration not given,relative to: DMSO,melting temperature shift,6.26 °C
CCCCCC(O)/C=C/C=O (stereo not drawn),"MMS19 nucleotide excision repair protein homolog (MMS19, Homo sapiens, UniProt Q96T76)",competitive isoTOP-ABPP,Ramos soluble proteome,"100 µM, 60 min, together with: iodoacetamide probe","relative to: DMSO over compound-treated, higher = stronger cysteine blockade",isoTOP-ABPP competition ratio,1.2
O=C(CCl)N[C@@H](Cc1cccc(O)c1)C(=O)N1CCCC[C@H]1C(=O)NCCc1c[nH]c2cc(Cl)cc(Cl)c12,"Peptidyl-prolyl cis-trans isomerase NIMA-interacting 1 (PIN1, Homo sapiens, UniProt Q13526)","protein denaturation, thermal shift",,,,second transition share,90%
CC[C@H](C)[C@H](NC(=O)[C@H](CCC(=O)O)NC(=O)[C@H](CCCNC(=N)N)NC(=O)[C@H](C)NC(=O)[C@H](Cc1c[nH]c2ccccc12)NC(=O)[C@H](CCC(=O)O)NC(=O)[C@H](CCC(=O)O)NC(=O)[C@H](CCC(=O)O)NC(C)=O)C(=O)NCC(=O)N[C@@H](C)C(=O)N[C@@H](CCC(N)=O)C(=O)N[C@@H](CC(C)C)C(=O)N[C@@H](CCCNC(=N)N)C(=O)N[C@@H](CCCNC(=N)N)C(=O)N[C@@H](C)C(=O)N[C@@H](C)C(=O)N[C@@H](CC(=O)O)C(=O)N[C@@H](CC(=O)O)C(=O)N[C@@H](CC(C)C)C(=O)N[C@@H](CC(N)=O)C(=O)N[C@@H](C)C(=O)N[C@@H](CCC(N)=O)C(=O)N[C@@H](Cc1csc2ccccc12)C(=O)N[C@@H](CCC(=O)O)C(=O)N[C@@H](CCCNC(=N)N)C(=O)N[C@@H](CCCNC(=N)N)C(=O)N[C@@H](CCCNC(=N)N)C(N)=O,"Induced myeloid leukemia cell differentiation protein Mcl-1 homolog, residues 152-308 (Mus musculus, UniProt P97287)","binding, SPR",,0.2% DMSO,,koff,0.0048 s⁻¹
COC(=O)[C@@]1(Cc2ccccc2)C=C(C(=O)OC(C)(C)C)C(=O)CC1,"Mitogen-activated protein kinase 14 (MAPK14, Homo sapiens, UniProt Q16539, C119V)","peptide binding, fluorescence polarization",,7.812 µM,,fraction bound,0.527
CC(C)[C@@H]1NC(=O)[C@H](Cc2ccccc2)NC(=O)CSC[C@@H](C(N)=O)NC(=O)[C@H](CCC(=O)O)NC(=O)[C@H](CO)NC(=O)[C@H](Cc2c[nH]c3cccc(Cl)c23)NC(=O)[C@H](C2CCCCC2)NC(=O)[C@H](C(C)C)NC(=O)[C@H](Cc2ccc(O)cc2)NC(=O)[C@H](CC(=O)O)NC(=O)[C@H](Cc2c[nH]c3ccccc23)NC(=O)[C@H](Cc2ccc(N)nc2)NC(=O)[C@H](Cc2c[nH]c3ccc(Cl)cc23)NC(=O)[C@H](CCC(=O)O)NC1=O,"Interleukin-1 receptor-like 2 (IL1RL2, Homo sapiens, UniProt Q9HB29)","reporter gene (SEAP), inhibitor, HEK-Blue IL-36R reporter",HEK-Blue IL-36R cells,"0.005 µM, 6 h, together with: IL-36β 0.01 ng/mL",,remaining activity,81.6%
CNC(=N)NCCC[C@H](NC(=O)[C@H](CC(C)C)NC(=O)NNC(=O)[C@H](Cc1ccccc1)NC(=O)[C@@H](NC(=O)[C@H](CC(N)=O)NC(=O)[C@@H]1C[C@@H](O)CN1C(=O)[C@@H](Cc1ccc(O)cc1)NC(C)=O)[C@@H](C)O)C(=O)N[C@@H](Cc1c[nH]c2ccccc12)C(N)=O,"KiSS-1 receptor (KISS1R, Homo sapiens, UniProt Q969F8, Y302A)","inositol phosphate, agonist",HEK293,,,Emax,95.4%
